Experimental data pooled from the literature.
Compare with care: the assays were run in different laboratories. Several values in a cell are separate wells, animals, samples, runs or records. ± gives the spread as reported.
CXCL8: Interleukin-8 (CXCL8, Homo sapiens, UniProt P10145)
Sequence of UniProt P10145 (whole entry, looked up): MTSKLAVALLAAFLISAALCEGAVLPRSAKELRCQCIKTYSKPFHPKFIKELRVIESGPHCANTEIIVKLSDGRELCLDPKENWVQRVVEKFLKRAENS
POLB I260M: DNA polymerase beta (POLB, Homo sapiens, UniProt P06746, I260M)
POLB: DNA polymerase beta (POLB, Homo sapiens, UniProt P06746)
Sequence of UniProt P63073 (whole entry, looked up): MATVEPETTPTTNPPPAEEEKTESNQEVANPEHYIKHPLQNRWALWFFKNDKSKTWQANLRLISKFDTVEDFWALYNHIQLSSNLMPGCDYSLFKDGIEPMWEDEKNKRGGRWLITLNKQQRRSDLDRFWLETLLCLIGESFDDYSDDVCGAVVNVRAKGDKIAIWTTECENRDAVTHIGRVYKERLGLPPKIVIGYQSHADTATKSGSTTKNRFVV
Sequence of UniProt Q16548 (whole entry, looked up): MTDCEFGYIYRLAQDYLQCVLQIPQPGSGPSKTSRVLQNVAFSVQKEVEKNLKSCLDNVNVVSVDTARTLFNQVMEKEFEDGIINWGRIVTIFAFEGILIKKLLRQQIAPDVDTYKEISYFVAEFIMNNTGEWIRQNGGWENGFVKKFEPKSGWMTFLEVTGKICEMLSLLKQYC
Sequence of UniProt Q96301 (whole entry, looked up): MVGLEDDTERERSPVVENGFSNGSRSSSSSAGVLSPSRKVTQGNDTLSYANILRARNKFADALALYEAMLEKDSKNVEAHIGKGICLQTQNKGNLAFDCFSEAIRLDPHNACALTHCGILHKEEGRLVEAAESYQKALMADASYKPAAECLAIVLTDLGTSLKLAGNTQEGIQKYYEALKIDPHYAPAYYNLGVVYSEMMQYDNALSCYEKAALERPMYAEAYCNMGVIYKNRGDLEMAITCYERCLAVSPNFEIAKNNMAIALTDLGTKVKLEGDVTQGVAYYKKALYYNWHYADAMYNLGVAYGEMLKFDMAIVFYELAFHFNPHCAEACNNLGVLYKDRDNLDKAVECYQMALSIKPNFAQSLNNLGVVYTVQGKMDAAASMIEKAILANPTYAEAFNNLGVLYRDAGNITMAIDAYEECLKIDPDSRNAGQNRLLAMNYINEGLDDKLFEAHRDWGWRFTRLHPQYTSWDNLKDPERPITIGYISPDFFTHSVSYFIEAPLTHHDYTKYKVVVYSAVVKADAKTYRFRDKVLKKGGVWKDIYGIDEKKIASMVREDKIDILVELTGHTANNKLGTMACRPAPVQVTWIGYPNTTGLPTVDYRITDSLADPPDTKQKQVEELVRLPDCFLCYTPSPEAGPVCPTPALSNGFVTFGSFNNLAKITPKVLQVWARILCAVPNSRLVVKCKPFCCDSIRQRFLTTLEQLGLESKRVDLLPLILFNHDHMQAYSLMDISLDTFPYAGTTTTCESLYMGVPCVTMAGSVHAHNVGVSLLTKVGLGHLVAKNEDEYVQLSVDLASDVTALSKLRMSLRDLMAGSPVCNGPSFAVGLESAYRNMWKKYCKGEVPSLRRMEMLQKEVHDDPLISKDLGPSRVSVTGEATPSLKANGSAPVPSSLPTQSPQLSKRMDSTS
Sequence of UniProt P20248 (whole entry, looked up): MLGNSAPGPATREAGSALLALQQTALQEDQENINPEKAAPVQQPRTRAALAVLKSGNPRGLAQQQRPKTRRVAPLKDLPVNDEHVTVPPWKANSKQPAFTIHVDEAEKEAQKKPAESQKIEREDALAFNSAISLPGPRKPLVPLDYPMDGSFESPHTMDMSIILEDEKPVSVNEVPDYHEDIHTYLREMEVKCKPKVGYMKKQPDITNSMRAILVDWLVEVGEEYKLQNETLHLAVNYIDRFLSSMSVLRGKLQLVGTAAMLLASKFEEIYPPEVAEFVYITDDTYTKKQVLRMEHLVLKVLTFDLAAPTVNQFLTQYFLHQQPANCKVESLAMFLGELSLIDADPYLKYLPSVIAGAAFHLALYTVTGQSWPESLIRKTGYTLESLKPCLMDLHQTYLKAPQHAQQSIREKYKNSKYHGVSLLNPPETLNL
Sequence of UniProt P22629 (whole entry, looked up): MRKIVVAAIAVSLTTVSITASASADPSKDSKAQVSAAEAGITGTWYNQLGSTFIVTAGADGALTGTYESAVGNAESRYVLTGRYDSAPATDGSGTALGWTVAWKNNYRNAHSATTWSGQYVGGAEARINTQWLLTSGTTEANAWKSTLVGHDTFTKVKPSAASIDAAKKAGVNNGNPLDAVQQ
Sequence of UniProt Q92793 (whole entry, looked up): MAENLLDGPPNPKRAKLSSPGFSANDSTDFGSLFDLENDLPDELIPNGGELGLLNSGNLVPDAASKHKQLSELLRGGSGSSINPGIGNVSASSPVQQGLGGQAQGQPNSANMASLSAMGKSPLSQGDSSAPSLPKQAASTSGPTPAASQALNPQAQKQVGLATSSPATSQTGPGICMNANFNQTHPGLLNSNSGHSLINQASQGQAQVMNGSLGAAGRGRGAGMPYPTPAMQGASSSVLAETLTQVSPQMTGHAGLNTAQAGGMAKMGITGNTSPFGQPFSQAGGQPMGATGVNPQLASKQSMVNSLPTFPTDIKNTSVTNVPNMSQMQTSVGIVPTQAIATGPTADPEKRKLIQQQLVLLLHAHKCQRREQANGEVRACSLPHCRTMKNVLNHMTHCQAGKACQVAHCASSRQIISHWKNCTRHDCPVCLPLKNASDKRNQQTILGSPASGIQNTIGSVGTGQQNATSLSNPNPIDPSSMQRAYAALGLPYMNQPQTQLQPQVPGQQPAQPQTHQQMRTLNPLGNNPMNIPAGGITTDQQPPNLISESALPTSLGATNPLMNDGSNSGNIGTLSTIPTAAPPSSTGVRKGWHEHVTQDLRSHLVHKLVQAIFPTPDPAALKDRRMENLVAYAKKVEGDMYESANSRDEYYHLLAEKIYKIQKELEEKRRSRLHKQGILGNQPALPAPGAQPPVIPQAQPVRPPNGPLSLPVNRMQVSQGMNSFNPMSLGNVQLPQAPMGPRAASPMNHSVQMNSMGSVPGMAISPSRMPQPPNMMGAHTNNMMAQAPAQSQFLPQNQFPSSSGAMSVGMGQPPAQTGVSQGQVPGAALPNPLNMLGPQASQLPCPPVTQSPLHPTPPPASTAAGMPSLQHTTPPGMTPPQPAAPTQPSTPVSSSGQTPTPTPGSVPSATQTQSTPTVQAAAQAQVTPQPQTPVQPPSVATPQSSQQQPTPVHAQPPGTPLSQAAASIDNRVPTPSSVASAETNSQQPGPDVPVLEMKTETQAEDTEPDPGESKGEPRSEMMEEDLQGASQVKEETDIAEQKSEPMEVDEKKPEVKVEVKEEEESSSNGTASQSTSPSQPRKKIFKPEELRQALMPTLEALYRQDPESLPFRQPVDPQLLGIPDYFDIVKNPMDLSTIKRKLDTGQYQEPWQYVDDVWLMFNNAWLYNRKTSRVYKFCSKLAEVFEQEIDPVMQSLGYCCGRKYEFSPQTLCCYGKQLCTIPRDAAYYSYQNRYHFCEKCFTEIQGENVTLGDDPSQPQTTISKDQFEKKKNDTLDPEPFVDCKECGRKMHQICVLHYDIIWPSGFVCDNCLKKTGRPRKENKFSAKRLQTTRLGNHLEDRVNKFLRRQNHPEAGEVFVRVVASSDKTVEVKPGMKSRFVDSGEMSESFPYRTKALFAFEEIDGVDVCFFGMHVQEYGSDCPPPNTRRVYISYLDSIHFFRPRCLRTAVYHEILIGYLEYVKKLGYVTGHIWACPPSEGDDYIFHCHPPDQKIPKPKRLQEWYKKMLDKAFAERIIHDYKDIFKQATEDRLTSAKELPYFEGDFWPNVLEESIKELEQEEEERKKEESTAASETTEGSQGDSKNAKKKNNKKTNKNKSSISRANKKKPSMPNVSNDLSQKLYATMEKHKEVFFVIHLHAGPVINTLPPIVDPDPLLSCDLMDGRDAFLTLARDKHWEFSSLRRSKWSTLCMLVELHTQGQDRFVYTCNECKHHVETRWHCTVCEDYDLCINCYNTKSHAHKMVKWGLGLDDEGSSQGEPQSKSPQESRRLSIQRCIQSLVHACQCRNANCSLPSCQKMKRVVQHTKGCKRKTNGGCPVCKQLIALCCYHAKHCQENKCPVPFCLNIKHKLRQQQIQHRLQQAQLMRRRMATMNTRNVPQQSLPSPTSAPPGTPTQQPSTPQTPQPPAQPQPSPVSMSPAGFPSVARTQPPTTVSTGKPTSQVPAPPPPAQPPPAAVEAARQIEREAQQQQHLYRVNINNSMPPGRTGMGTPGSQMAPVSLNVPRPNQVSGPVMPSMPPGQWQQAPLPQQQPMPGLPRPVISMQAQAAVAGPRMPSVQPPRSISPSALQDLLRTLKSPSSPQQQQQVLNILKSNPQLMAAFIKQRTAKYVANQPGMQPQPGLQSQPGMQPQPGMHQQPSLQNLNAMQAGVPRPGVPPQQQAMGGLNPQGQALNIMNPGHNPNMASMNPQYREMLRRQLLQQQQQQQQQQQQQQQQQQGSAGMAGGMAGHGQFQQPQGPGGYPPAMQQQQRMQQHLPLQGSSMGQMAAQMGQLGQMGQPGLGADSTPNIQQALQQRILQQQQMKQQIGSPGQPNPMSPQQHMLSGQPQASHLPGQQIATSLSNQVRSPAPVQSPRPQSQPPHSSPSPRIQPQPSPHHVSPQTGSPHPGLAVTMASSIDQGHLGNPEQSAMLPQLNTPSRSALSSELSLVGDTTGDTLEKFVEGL
Sequence of UniProt P28482 (whole entry, looked up): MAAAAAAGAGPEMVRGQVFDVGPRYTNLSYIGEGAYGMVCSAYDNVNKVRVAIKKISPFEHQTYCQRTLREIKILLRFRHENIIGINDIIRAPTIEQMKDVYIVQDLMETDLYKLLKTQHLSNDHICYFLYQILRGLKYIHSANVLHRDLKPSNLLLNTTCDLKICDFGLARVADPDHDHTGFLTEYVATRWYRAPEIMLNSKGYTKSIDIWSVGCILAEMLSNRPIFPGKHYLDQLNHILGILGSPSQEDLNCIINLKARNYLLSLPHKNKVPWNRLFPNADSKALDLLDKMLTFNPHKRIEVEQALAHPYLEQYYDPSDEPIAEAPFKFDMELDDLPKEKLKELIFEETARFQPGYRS

SMILES | target | test | test system | setting | Kd
CC(=O)N[C@@H]1[C@@H](O[C@@H]2O[C@H](C(=O)O)[C@@H](O[C@@H]3O[C@H](COS(=O)(=O)O)[C@@H](OS(=O)(=O)O)[C@H](O[C@@H]4O[C@H](C(=O)O)[C@@H](OS(=O)(=O)O)[C@H](OS(=O)(=O)O)[C@H]4OS(=O)(=O)O)[C@H]3NC(C)=O)[C@H](OS(=O)(=O)O)[C@H]2OS(=O)(=O)O)[C@H](OS(=O)(=O)O)[C@@H](COS(=O)(=O)O)O[C@H]1n1ccnn1 | CXCL8 | ligand displacement, FP | – | – | 10.6 µM
CC(=O)c1cc(O)c(=O)c(O)cc1C | Mg2+ | binding, absorption spectroscopy | – | high-affinity site | 200 µM
C[n+]1cn([C@@H]2O[C@H](COP(=O)(O)OP(=O)([O-])OP(=O)(O)OC[C@H]3O[C@@H](n4cnc5c(NCCCCCCN)ncnc54)[C@H](O)[C@@H]3O)[C@@H](O)[C@H]2O)c2nc(N)nc(O)c21 | Eif4e (Mus musculus, UniProt P63073) | cap analogue binding, pyrene fluorescence competition | – | 20 °C | 0.88 µM and 0.884 µM
CC[C@H](C)[C@H](NC(=O)[C@H](CCCNC(=N)N)NC(=O)[C@H](CO)NC(=O)[C@H](CC(C)C)NC(=O)[C@H](CCC(=O)O)NC(=O)[C@H](CCC(N)=O)NC(=O)[C@H](C)NC(=O)[C@@H](NC(=O)[C@H](Cc1c[nH]c2ccccc12)NC(=O)[C@@H](NC(=O)[C@H](CCC(=O)O)NC(=O)[C@@H]1CCCN1C(=O)[C@H](CCCNC(=N)N)NC(=O)c1ccc2c(c1)C(=O)OC21c2ccc(O)cc2Oc2cc(O)ccc21)[C@@H](C)CC)[C@@H](C)CC)C(=O)NCC(=O)N[C@@H](CC(=O)O)C(=O)N[C@@H](CCC(=O)O)C(=O)N[C@@H](Cc1ccccc1)C(=O)N[C@@H](CC(N)=O)C(=O)N[C@@H](C)C(=O)N[C@@H](Cc1ccc(O)cc1)C(=O)N[C@@H](Cc1ccc(O)cc1)C(=O)N[C@@H](C)C(=O)N[C@@H](CCCNC(=N)N)C(N)=O | Bcl-2-related protein A1 (Homo sapiens, UniProt Q16548) | fluorescence anisotropy | – | – | 0.0052 ± 0.0017 µM
Cc1cn(C2CC(O)C(COP(=O)(O)OP(=O)(O)C(Br)P(=O)(O)O)O2)c(=O)[nH]c1=O (mixture of isomers) | POLB I260M | substrate, single turnover kinetics | – | 37 °C | 6.2 ± 0.5 µM
CC[C@H](C)[C@@H]1NC(=O)[C@H](C)NC(=O)[C@H](C)NC(=O)[C@H]([C@@H](C)O)NC(=O)[C@H](Cc2ccccc2)NC(=O)[C@@H]2CSSC[C@@H]3NC(=O)[C@H](C(C)C)NC(=O)[C@H](CCCCN)NC(=O)[C@H](C)NC(=O)[C@H](CCCCN)NC(=O)[C@@H]4CSSC[C@H](NC(=O)[C@H](CO)NC(=O)[C@H](CCC(=O)O)NC(=O)CNC(=O)[C@H](CSSC[C@H](NC(=O)CNC1=O)C(=O)N[C@@H](CO)C(=O)N4)NC(=O)[C@@H]1CCCN1C(=O)[C@H](Cc1ccccc1)NC(=O)CNC(=O)[C@H](CC(N)=O)NC(=O)[C@H](CCCCN)NC(=O)[C@H](Cc1ccc(O)cc1)NC3=O)C(=O)N[C@@H](C(C)C)C(=O)N[C@@H](Cc1ccc(O)cc1)C(=O)N[C@@H](CC(C)C)C(=O)N1CCC[C@H]1C(=O)N2 | POPC/POPE lipid membrane | membrane binding, surface plasmon resonance | POPC/POPE 80:20 vesicles | pH 7.4 | 4.58 ± 0.07 µM
CC[C@H](C)[C@@H]1NC(=O)[C@H](Cc2ccc(O)cc2)NC(=O)[C@@H]2CCCN2C(=O)[C@H](CCCNC(=N)N)NC(=O)[C@@H](Cc2c[nH]c3ccccc23)NC(=O)CSC[C@@H](C(=O)NCC(N)=O)NC(=O)[C@H](C(C)C)NC(=O)[C@H]([C@@H](C)CC)NC(=O)[C@H](CC(C)C)NC(=O)[C@H](CCCNC(=N)N)NC(=O)CNC(=O)[C@H]([C@@H](C)O)NC(=O)[C@H](Cc2c[nH]c3ccccc23)NC(=O)[C@H](CCCNC(=N)N)NC(=O)[C@H](CCC(=O)O)NC1=O | Plexin-B1 (PLXNB1, Homo sapiens, UniProt O43157) | SPR | – | – | 0.00028 µM
CC(C)(C)Nc1c(F)c(S(N)(=O)=O)c(F)c(F)c1S(=O)(=O)CCc1ccccc1 | CA2 (Homo sapiens, UniProt P00918, A65S/F130A/I91T/L203N/N67K/V134S) | – | – | pH 7 | 0.077 µM
Cc1cn(C2CC(O)C(COP(=O)(O)OP(=O)(O)C(Cl)P(=O)(O)O)O2)c(=O)[nH]c1=O (mixture of isomers) | POLB I260M | substrate, single turnover kinetics | – | 37 °C | 55.5 ± 13.6 µM
C[n+]1ccc(/C=N/NC(=O)c2cccc(C(=O)N/N=C/c3cc[n+](C)c4ccccc34)n2)c2ccccc21 | MYC snap-back G4 DNA | binding, native ESI-MS | 100 mM trimethylammonium acetate | 1 mM KCl | 0.081 µM
COC1CCC(N(C(=O)C2CCC(C)CC2)c2cc(C3=CCCCC3)sc2C(=O)O)CC1 (stereo not drawn) | Probable UDP-N-acetylglucosamine--peptide N-acetylglucosaminyltransferase SPINDLY (SPY, Arabidopsis thaliana, UniProt Q96301) | binding, biolayer interferometry | – | added: SPY wild-type | 29.3 µM
CC[C@H](C)[C@@H]1NC(=O)[C@H](C)NC(=O)[C@H](C)NC(=O)[C@H]([C@@H](C)O)NC(=O)[C@H](Cc2ccccc2)NC(=O)[C@@H]2CSSC[C@@H]3NC(=O)[C@H](C(C)C)NC(=O)[C@H](CCCCN)NC(=O)[C@H](CO)NC(=O)[C@H](CCCCN)NC(=O)[C@@H]4CSSC[C@H](NC(=O)[C@H](CO)NC(=O)[C@H](CCC(=O)O)NC(=O)CNC(=O)[C@H](CSSC[C@H](NC(=O)CNC1=O)C(=O)N[C@@H](CO)C(=O)N4)NC(=O)[C@@H]1CCCN1C(=O)[C@H](Cc1ccccc1)NC(=O)CNC(=O)[C@H](CC(N)=O)NC(=O)[C@H](CCCCN)NC(=O)[C@H](Cc1ccc(O)cc1)NC3=O)C(=O)N[C@@H](C)C(=O)N[C@@H](Cc1ccc(O)cc1)C(=O)N[C@@H](CC(C)C)C(=O)N1CCC[C@H]1C(=O)N2 | POPC/POPE lipid membrane | membrane binding, surface plasmon resonance | POPC/POPE 80:20 vesicles | pH 7.4 | 29.5 ± 1.29 µM
N=C1N[C@H]2[C@H](CS[C@H]2CCCCC(=O)NCCNC(=O)c2cc3cc(F)c(O)c(F)c3oc2=O)N1 | Streptavidin (Streptomyces avidinii, UniProt P22629) | binding, FP | – | pH 7.4 | 2.95 µM
CC#Cc1cc2c3c(c1C#CC)O[C@H](CO)[C@H](O)[C@@H]3OC2 | Galectin-8 (LGALS8, Homo sapiens, UniProt O00214) | cell-free assay, FP | – | – | > 2000 µM
CC(=O)N[C@@H]1[C@@H](O[C@@H]2O[C@H](C(=O)O)[C@@H](O[C@@H]3O[C@H](COS(=O)(=O)O)[C@@H](OS(=O)(=O)O)[C@H](O[C@@H]4O[C@H](C(=O)O)[C@@H](OS(=O)(=O)O)[C@H](OS(=O)(=O)O)[C@H]4OS(=O)(=O)O)[C@H]3NC(C)=O)[C@H](OS(=O)(=O)O)[C@H]2OS(=O)(=O)O)[C@H](OS(=O)(=O)O)[C@@H](COS(=O)(=O)O)O[C@H]1N=[N+]=[N-] | CXCL8 | isothermal titration calorimetry | – | 25 °C, protein 10 µM | 0.034 µM
Nc1nc2c(ncn2C2CC(O)C(COP(=O)(O)OP(=O)(O)C(F)(Cl)P(=O)(O)O)O2)c(=O)[nH]1 (mixture of isomers) | POLB | nucleotide binding, substrate, single turnover kinetics | – | 37 °C, dG misincorporation opposite A | 833 ± 345 µM
O=C(NCCOc1cnc(-c2ccc(N3CCN(C(=O)CN4CCC(C(=O)Nc5ccc6[nH]nc(-c7ccncc7)c6c5)C4)CC3)cc2)nc1)OC1CCC=CCCC1 (stereo not drawn) | MAPK1 (Homo sapiens, UniProt P28482) | binding, SPR | – | – | 0.00017 µM
CC[C@H](C)[C@H](NC(=O)[C@H](CC(C)C)NC(=O)[C@H](CCCNC(=N)N)NC(=O)c1ccc(CN2CCN(C)CC2)cc1)C(=O)N[C@@H](Cc1ccccc1)C(N)=O | Cyclin-A2 (CCNA2, Homo sapiens, UniProt P20248) | binding, tryptophan fluorescence titration | – | co-expressed trigger factor | 4.77 ± 0.417 µM
CC[C@H](C)[C@H](NC(=O)[C@H](CC(=O)O)NC(=O)[C@H](CO)NC(C)=O)C(=O)N[C@@H](CSCc1ccccc1)C(=O)N[C@@H](CC(=O)O)C(=O)N[C@@H](Cc1ccccc1)C(=O)N[C@H](C(=O)N[C@@H](CC(C)C)C(=O)N[C@@H](CCCCN)C(=O)N[C@@H](CC(N)=O)C(=O)N[C@@H](Cc1ccc(O)cc1)C(=O)N1CCC[C@H]1C(N)=O)[C@@H](C)CC | CREB-binding protein, KIX domain (CREBBP, Homo sapiens, UniProt Q92793) | binding, fluorescence polarisation | – | – | 7.3 ± 1.5 µM
Nc1nc2c(ncn2[C@H]2C[C@H](O)[C@@H](COP(=O)(O)OP(=O)(O)[C@@H](Cl)P(=O)(O)O)O2)c(=O)[nH]1 | POLB | substrate, quench-flow kinetics | – | pH 8.0, 37 °C, incorporation opposite C in gapped DNA | 11 ± 1 µM
CC(P(=O)(O)O)P(=O)(O)OP(=O)(O)OCC1OC(n2cnc3c(=O)[nH]c(N)nc32)CC1O (mixture of isomers) | POLB | nucleotide binding, substrate, single turnover kinetics | – | 37 °C, dG misincorporation opposite A | 57 ± 47 µM
